Assay results from different studies.
± marks the error that the study gave.

SMILES | target or system | test | test system | setting | how to read | measurement | result
N=C(N)NCCC[C@@H]1NC(=O)[C@H](CCCCNC(=O)CNC(=O)CNC(=O)CNC(=O)CC[C@H](NC(=O)CNC(=O)CNC(=O)CNC(=O)CN2CCN(CC(=O)O)CCN(CC(=O)O)CCN(CC(=O)O)CC2)C(=O)NCC(=O)NCC(=O)NCC(=O)NCCCC[C@@H]2NC(=O)[C@@H](Cc3ccccc3)NC(=O)[C@H](CC(=O)O)NC(=O)CNC(=O)[C@H](CCCNC(=N)N)NC2=O)NC(=O)[C@@H](Cc2ccccc2)NC(=O)[C@H](CC(=O)O)NC(=O)CNC1=O [copper-64 labelled] | – | – | athymic nu/nu mouse, female, kidney | intravenous, 4 h | – | tissue uptake | 3.23 ± 0.4 %ID/g
N=C(N)NCCC[C@H](NC(=O)[C@@H]1CSSC[C@H](NC(=O)[C@H](Cc2ccc3ccccc3c2)NC(=O)[C@H](CCCNC(=N)N)NC(=O)[C@H](CCCNC(=N)N)NC(=O)CN2CCN(CC(=O)O)CCN(CC(=O)O)CC2)C(=O)N[C@@H](Cc2ccc(O)cc2)C(=O)N[C@@H](CCCNC(N)=O)C(=O)N[C@@H](CCCCN)C(=O)N[C@H](CCCCN)C(=O)N2CCC[C@H]2C(=O)N[C@@H](Cc2ccc(O)cc2)C(=O)N[C@@H](CCCNC(=N)N)C(=O)N[C@@H](CCCNC(N)=O)C(=O)N1)C(N)=O [gallium-68 labelled] | – | – | healthy human volunteers | dose not given, during imaging | – | vital signs, ECG, blood tests | no effect
CCCC[C@@H]1NC(=O)[C@@H](CC(C)C)NC(=O)[C@H](CCCCNC(=O)CN2CCN(CC(=O)O)CCN(CC(=O)O)CC2)NC(=O)NNC(=O)[C@H](Cc2c[nH]cn2)NC(=O)[C@@H](Cc2c[nH]c3ccccc23)NC1=O [copper-64 labelled] | – | refers to: 64Cu | mouse plasma | 37 °C | – | plasma protein binding | 26%
CN1C(=O)[C@@H](Cc2ccc(O)cc2)NC(=O)CNC(=O)[C@H](Cc2ccc3ccccc3c2)NC(=O)[C@H](CCCNC(=N)N)NC(=O)[C@H]1CCCNC(=O)c1ccc(CNC(=O)CN2CCN(CC(=O)O)CCN(CC(=O)O)CCN(CC(=O)O)CC2)cc1 [gallium-68 labelled] | – | – | adult reference man, from C57BL/6 mice data, red marrow | – | – | absorbed dose coefficient | 0.00867 mGy/MBq
CC(C)C[C@H](NC(=O)[C@H](Cc1ccc(O)cc1)NC(=O)[C@@H](CCCNC(=N)N)NC(=O)[C@@H](CO)NC(=O)[C@H](Cc1ccccc1)NC(=O)[C@H](CC1CCCCC1)NC(=O)[C@H](CC(=O)O)NC(=O)CN1CCN(CC(=O)O)CCN(CC(=O)O)CCN(CC(=O)O)CC1)C(=O)N[C@@H](Cc1c[nH]c2ccccc12)C(=O)N[C@@H](CO)C(=O)O [copper-64 labelled] | – | radio-HPLC | human | intravenous, 200 MBq | – | plasma half-life | 8.5 min
CCCC[C@H](NC(=O)CNC(=O)CNC(=O)CN1CCN(CC(=O)O)CCN(CC(=O)O)CC1)C(=O)N[C@H]1CC(=O)NCCCC[C@@H](C(N)=O)NC(=O)[C@H](Cc2c[nH]c3ccccc23)NC(=O)[C@H](CCCNC(=N)N)NC(=O)[C@@H](Cc2ccccc2)NC(=O)[C@H](Cc2c[nH]cn2)NC1=O [technetium-99m labelled] | – | – | C57 mouse, brain | iv, 0.037 MBq, 0.5 h | – | tissue uptake | 0.13 ± 0.02 %ID/g
CN(C)CCCSC(=S)N1CCN(C(=O)/C=C/c2coc3ccccc3c2=O)CC1 | tomato spotted wilt virus | viral infection, half-leaf method | Nicotiana glutinosa | 500 µg/mL | – | curative effect | 64.4 ± 7.9%
COc1ccc(C2CC(c3ccc(C)cc3)=Nc3ccccc3S2)cc1OC (stereo not drawn) | – | – | Wistar rat, STZ-induced diabetes | oral, 10 mg/kg once daily, day 28 | – | body weight | 177 ± 4.98 g
C[C@@H](O)[C@@H]1NC(=O)[C@H](CCCCN)NC(=O)[C@@H](Cc2c[nH]c3ccccc23)NC(=O)[C@H](Cc2ccc(O)cc2)NC(=O)[C@@H](NC(=O)[C@@H](Cc2ccccc2)NC(=O)CN2CCN(CC(=O)O)CCN(CC(=O)O)CCN(CC(=O)O)CC2)CSSC[C@@H](C(=O)N[C@H](CO)[C@@H](C)O)NC1=O [gallium-67 labelled] | – | radio-TLC | mouse plasma | 3 h, 37 °C, 67Ga-labelled | – | remaining intact | 94.4 ± 0.2%
CCCC[C@H](NC(=O)CNC(=O)CNC(=O)CN1CCN(CC(=O)O)CCN(CC(=O)O)CCN(CC(=O)O)CC1)C(=O)N[C@H]1CC(=O)NCCCC[C@@H](C(N)=O)NC(=O)[C@H](Cc2c[nH]c3ccccc23)NC(=O)[C@H](CCCNC(=N)N)NC(=O)[C@@H](Cc2ccccc2)NC(=O)[C@H](Cc2c[nH]cn2)NC1=O [lutetium-177 labelled] | – | – | C57 mouse, female, muscle | intravenous, 0.037 MBq, 2 h | – | tissue uptake | 0.17 ± 0.09 %ID/g
COC(=O)[C@H](CSSC(C)(C)[C@H](NC(=O)[C@H](CCC(=O)NC[C@H](O)[C@@H](O)[C@H](O)[C@H](O)CO)NC(=O)[C@H](CCC(=O)O)NC(=O)[C@H](CCC(=O)NC[C@H](O)[C@@H](O)[C@H](O)[C@H](O)CO)NC(=O)[C@H](CCC(=O)O)NC(=O)[C@H](CCC(=O)NC[C@H](O)[C@@H](O)[C@H](O)[C@H](O)CO)NC(=O)CC[C@H](NC(=O)c1ccc(NCc2cnc3nc(N)[nH]c(=O)c3n2)cc1)C(=O)O)C(=O)O)NC(=O)CC[C@H](NC(=O)c1ccc(NCc2cnc3nc(N)[nH]c(=N)c3n2)cc1)C(=O)O | – | – | Lewis rat, female, plasma | subcutaneous, 500 nmol/kg | – | Tmax | ~30 min
N=C(N)NCCC[C@H](NC(=O)[C@H](CCCNC(=N)N)NC(=O)[C@H](CCCNC(=N)N)NC(=O)[C@H](CCCNC(=N)N)NC(=O)[C@H](CCCNC(=N)N)NC(=O)[C@H](CCCNC(=N)N)NC(=O)[C@H](CCCNC(=N)N)NC(=O)[C@H](CCCNC(=N)N)NC(=O)CN(CCN(CCN(CC(=O)O)CC(=O)O)CC(=O)O)CC(=O)O)C(=O)O | NIH/3T3 cells | refers to: Gd | – | 0.10 mM, 4 h | baseline: reference compounds | cellular uptake | increased
CCCC[C@H](NC(=O)COCCOCCNC(=O)CN1CCN(CC(=O)O)CCN(CC(=O)O)CC1)C(=O)N[C@H]1CC(=O)NCCCC[C@@H](C(N)=O)NC(=O)[C@H](Cc2c[nH]c3ccccc23)NC(=O)[C@H](CCCNC(=N)N)NC(=O)[C@@H](Cc2ccccc2)NC(=O)[C@H](Cc2c[nH]cn2)NC1=O [copper-64 labelled] | – | – | C57 mice, muscle | intravenous, 0.37 MBq, 24 h | – | tissue uptake | 0.01 ± 0.01 %ID/g
CC(C)C[C@H](NC(=O)[C@@H](CCCCNC(=O)CCCCCNC(=O)CN1CCN(CC(=O)O)CCN(CC(=O)O)CCN(CC(=O)O)CC1)NC(=O)[C@H](Cc1ccc(O)cc1)NC(=O)[C@H](CO)NC(=O)[C@H](Cc1c[nH]c2ccccc12)NC(=O)[C@H](Cc1cnc[nH]1)NC(=O)[C@@H]1CCC(=O)N1)C(=O)N[C@@H](CCCNC(=N)N)C(=O)N1CCC[C@H]1C(=O)NCC(N)=O [indium-111 labelled] | – | – | female athymic nude mouse, muscle | intravenous, 0.037 MBq, 4 h | – | tissue uptake | 0.12 ± 0.03 %ID/g
CCN(CC)CCSC(=S)N1CCN(C(=O)/C=C/c2coc3cc(OC)ccc3c2=O)CC1 | tomato spotted wilt virus | viral infection, half-leaf method | Nicotiana glutinosa | 500 µg/mL | – | inactivation effect | 57.2 ± 4.6%

Excerpt of the above:
SMILES | target or system | test | test system | setting | how to read | measurement | result
N=C(N)NCCC[C@H](NC(=O)[C@@H]1CSSC[C@H](NC(=O)[C@H](Cc2ccc3ccccc3c2)NC(=O)[C@H](CCCNC(=N)N)NC(=O)[C@H](CCCNC(=N)N)NC(=O)CN2CCN(CC(=O)O)CCN(CC(=O)O)CC2)C(=O)N[C@@H](Cc2ccc(O)cc2)C(=O)N[C@@H](CCCNC(N)=O)C(=O)N[C@@H](CCCCN)C(=O)N[C@H](CCCCN)C(=O)N2CCC[C@H]2C(=O)N[C@@H](Cc2ccc(O)cc2)C(=O)N[C@@H](CCCNC(=N)N)C(=O)N[C@@H](CCCNC(N)=O)C(=O)N1)C(N)=O [gallium-68 labelled] | – | – | healthy human volunteers | dose not given, during imaging | – | vital signs, ECG, blood tests | no effect
CN(C)CCCSC(=S)N1CCN(C(=O)/C=C/c2coc3ccccc3c2=O)CC1 | tomato spotted wilt virus | viral infection, half-leaf method | Nicotiana glutinosa | 500 µg/mL | – | curative effect | 64.4 ± 7.9%
